Assay results from different studies.
Compare with care: the assays were run in different laboratories. “And” joins repeats or separate records; there may be more than shown. Numbers after ± are the reported error.
U2AF2: U2AF2 148-342 (Homo sapiens, UniProt P26368)
Chain of UniProt P26368 (whole entry, looked up): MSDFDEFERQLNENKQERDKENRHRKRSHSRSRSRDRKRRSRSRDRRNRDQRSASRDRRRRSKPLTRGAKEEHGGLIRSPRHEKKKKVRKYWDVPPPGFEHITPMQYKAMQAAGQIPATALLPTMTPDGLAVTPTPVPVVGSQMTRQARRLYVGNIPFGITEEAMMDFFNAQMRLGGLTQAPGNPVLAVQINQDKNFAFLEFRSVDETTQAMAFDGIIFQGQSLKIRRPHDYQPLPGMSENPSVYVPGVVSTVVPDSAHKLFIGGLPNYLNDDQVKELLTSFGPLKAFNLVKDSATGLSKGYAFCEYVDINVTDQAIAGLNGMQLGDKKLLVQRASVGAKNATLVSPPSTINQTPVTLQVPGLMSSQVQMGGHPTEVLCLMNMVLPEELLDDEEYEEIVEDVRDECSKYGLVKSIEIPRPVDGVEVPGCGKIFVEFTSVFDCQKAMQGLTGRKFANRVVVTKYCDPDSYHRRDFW
B1: sequence looked up; chain SLKVAPKVKATAAPAGAPPQPQDLEFTKLPNGLVIASLENYSPVSRIGLFIKAGSRYEDFSNLGTTHLLRLTSSLTTKGASSFKITRGIEAVGGKLSVTATRENMAYTVECLRGDVDILMEFLLNVTTAPEFRRWEVADLQPQLKIDKAVAFQNPQTHVIENLHAAAYRNALANPLYCPDYRIGKVTSEELHYFVQNHFTSARMALIGLGVSHPVLKQVAEQFLNMRGGLGLSGAKANYRGGEIREQNGDSLVHAAFVAESAVAGSAEANAFSVLQHVLGAGPHVKRGSNTTSHLHQAVAKATQQPFDVSAFNASYSDSGLFGIYTISQATAAGDVIKAAYNQVKTIAQGNLSNTDVQAAKNKLKAGYLMSVESSECFLEEVGSQALVAGSYMPPSTVLQQIDSVANADIINAAKKFVSGQKSMAASGNLGHTPFVDEL
B2: human IGBP1; sequence looked up; chain AAEDELQLPRLPELFETGRQLLDEVEVATEPAGSRIVQEKVFKGLDLLEKAAEMLSQLDLFSRNEDLEEIASTDLKYLLVPAFQGALTMKQVNPSKRLDHLQRAREHFINYLTQCHCYHVAEFELPKTMNNSAENHTANSSMAYPSLVAMASQRQAKIQRYKQKKELEHRLSAMKSAVESGQADDERVREYYLLHLQRWIDISLEEIESIDQEIKILRERDSSREASTSNSSRQERPPVKPFILTRNMAQAKVFGAGYPSLPTMTVSDWYEQHRKYGALPDQGIAKAAPEEFRKAAQQQEEQEEKEEEDDEQTLHRAREWDDWKDTHPRGYGNRQNMG
B3: human RECQ1; sequence looked up; chain MASVSALTEELDSITSELHAVEIQIQELTERQQELIQKKKVLTKKIKQCLEDSDAGASNEYDSSPAAWNKEDFPWSGKVKDILQNVFKLEKFRPLQLETINVTMAGKEVFLVMPTGGGKSLCYQLPALCSDGFTLVICPLISLMEDQLMVLKQLGISATMLNASSSKEHVKWVHAEMVNKNSELKLIYVTPEKIAKSKMFMSRLEKAYEARRFTRIAVDEVHCCSQWGHDFRPDYKALGILKRQFPNASLIGLTATATNHVLTDAQKILCIEKCFTFTASFNRPNLYYEVRQKPSNTEDFIEDIVKLINGRYKGQSGIIYCFSQKDSEQVTVSLQNLGIHAGAYHANLEPEDKTTVHRKWSANEIQVVVATVAFGMGIDKPDVRFVIHHSMSKSMENYYQESGRAGRDDMKADCILYYGFGDIFRISSMVVMENVGQQKLYEMVSYCQNISKCRRVLMAQHFDEVWNSEACNKMCDNCCKDSAFERKNITEYCRDLIKILKQAEELNEKLTPLKLIDSWMGKGAAKLRVAGVVAPTLPREDLEKIIAHFLIQQYLKEDYSFTAYATISYLKIGPKANLLNNEAHAITMQVTKSTQNSFRAESSQTCHSEQGDKKMEEKNSGNFQKKAANMLQQSGSKNTGAKKRKIDDA
B4: PRPS2 (human); sequence looked up; chain PNIVLFSGSSHQDLSQRVADRLGLELGKVVTKKFSNQETSVEIGESVRGEDVYIIQSGCGEINDNLMELLIMINACKIASSSRVTAVIPCFPYARQDKKDKSRAPISAKLVANMLSVAGADHIITMDLHASQIQGFFDIPVDNLYAEPAVLQWIRENIAEWKNCIIVSPDAGGAKRVTSIADRLNVEFALIHKERKKANEVDRMVLVGDVKDRVAILVDDMADTCGTICHAADKLLSAGATKVYAILTHGIFSGPAISRINNAAFEAVVVTNTIPQEDKMKHCTKIQVIDISMILAEAIRRTHNGESVSYLFSHVPL
Chain of UniProt P13393 (whole entry, looked up): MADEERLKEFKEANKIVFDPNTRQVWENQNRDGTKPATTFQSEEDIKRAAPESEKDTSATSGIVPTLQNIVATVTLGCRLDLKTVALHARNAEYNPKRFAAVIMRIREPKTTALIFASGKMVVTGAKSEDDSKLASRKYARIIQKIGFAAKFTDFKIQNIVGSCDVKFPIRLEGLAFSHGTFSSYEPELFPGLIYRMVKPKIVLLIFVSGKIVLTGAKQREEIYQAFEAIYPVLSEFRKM

| Substance | tested on | assay | system | setting | how to read | measurement | value |
| --- | --- | --- | --- | --- | --- | --- | --- |
| heparin | PC-12 cells | inhibitor |  | 100 µg/mL, added: HBGF-2 |  | neurite outgrowth | inhibited |
| B1 | CYB5R4 knockout human cells | PP4 interaction, 3xFLAG-PP4C IP-MS |  | concentration not given | relative to: CYB5R4 KO over parental | log2 fold change | 1.41 |
| Peginesatide | UT7/EPO | microarray, refers to: CISH mRNA (probe set 223961_s_at) |  | 20 nM, 90 min | relative to: vehicle | mRNA level | 10.9 fold |
| YLEPVYLGF | Jurkat expressing engineered TCR | NFAT-eGFP reporter, fluorescence microscopy | peptide | concentration not given, HLA-A*01:01 on EL4 cells |  | GFP-positive cells | 0.541% |
| epoetin alfa | UT7/EPO | LC-MS/MS phosphoproteomics (trypsin), refers to: JAK2 phospho-Tyr1007,1008 |  | 10 U/mL, 15 min | relative to: vehicle | phosphorylation | 5.5 fold |
| human apolipoprotein L2 | CYB5R4 knockout human cells | PP4 interaction, 3xFLAG-PP4C IP-MS |  | concentration not given | relative to: CYB5R4 KO over parental | log2 fold change | -0.41 |
| MTVCNASQRQAHAQATAVSL | H661 | phage binding | peptide |  | relative to: targeting over control phage | selectivity ratio | 2.2 ± 0.5 |
| EVEPIGLEF | Jurkat expressing engineered TCR | NFAT-eGFP reporter, fluorescence microscopy | peptide | concentration not given, HLA-A*01:01 on EL4 cells |  | GFP-positive cells | 0.503% |
| B2 (human IGBP1) | CYB5R4 knockout human cells | PP4 interaction, 3xFLAG-PP4C IP-MS |  | concentration not given | relative to: CYB5R4 KO over parental | log2 fold change | -0.28 |
| Pam2CSK4 | BV-2 | RT-qPCR, refers to: Marco |  | concentration not given, unit not given | relative to: untreated | mRNA level | 4.36 and 5.59 and 5.18 |
| EIDPIQLDY | Jurkat expressing engineered TCR | NFAT-eGFP reporter, fluorescence microscopy | peptide | concentration not given, HLA-A*01:01 on EL4 cells |  | GFP-positive cells | 3.26% |
| AUUUGUUUC (ssRNA) | U2AF2 | sequencing of bound RNA | RNA | motif only |  | Kd | 1830 nM |
| B3 (human RECQ1) | CYB5R4 knockout human cells | PP6 interaction, 3xFLAG-PP6C IP-MS |  | concentration not given | relative to: CYB5R4 KO over parental | log2 fold change | -2.65 |
| UUUAUUCUU (ssRNA) | U2AF2 | sequencing of bound RNA | RNA | motif only |  | Kd | 960 nM |
| QIDPVGYEY | Jurkat expressing engineered TCR | NFAT-eGFP reporter, fluorescence microscopy | peptide | concentration not given, HLA-A*01:01 on EL4 cells |  | GFP-positive cells | 0.476% |
| B4 (PRPS2) | CYB5R4 knockout human cells | PP4 interaction, 3xFLAG-PP4C IP-MS |  | concentration not given | relative to: CYB5R4 KO over parental | log2 fold change | 1.47 |
| LLDILNLEY | Jurkat expressing engineered TCR | NFAT-eGFP reporter, fluorescence microscopy | peptide | concentration not given, HLA-A*01:01 on EL4 cells |  | GFP-positive cells | 0.464% |
| AACAAGTACAACACACTCTCAAATAATTATGCGCTTCAAGTCAATCGGTCC (dsDNA; 5'-amino-C6 primer) | SPT15 full length assumed (Saccharomyces cerevisiae, UniProt P13393) | array | double-stranded DNA, one strand shown | TBP alone |  | Kd | 6.89 ± 1.28 nM |

For quick reference, copied from above:
| Substance | tested on | assay | system | setting | how to read | measurement | value |
| --- | --- | --- | --- | --- | --- | --- | --- |
| B1 | CYB5R4 knockout human cells | PP4 interaction, 3xFLAG-PP4C IP-MS |  | concentration not given | relative to: CYB5R4 KO over parental | log2 fold change | 1.41 |
| B2 (human IGBP1) | CYB5R4 knockout human cells | PP4 interaction, 3xFLAG-PP4C IP-MS |  | concentration not given | relative to: CYB5R4 KO over parental | log2 fold change | -0.28 |
